Assay results gathered from unrelated publications.
Several values in a cell are separate wells, animals, samples, runs or records. Numbers after ± are the reported error.
GUK1: GUK1 (Homo sapiens, UniProt Q16774)
GLP1R: Glucagon-like peptide 1 receptor (GLP1R, Homo sapiens, UniProt P43220)

| SMILES | target | assay | test system | conditions | how to read | measurement | value |
| --- | --- | --- | --- | --- | --- | --- | --- |
| CC1(C)CN(CCCCC(=O)N[C@@H](CCC(=O)O)C(=O)N[C@@H](CCC(=O)O)C(=O)N[C@H](CCCCNC(=O)CCCCCCC(=O)NCCCC[C@H](NC(=O)N[C@@H](CCC(=O)O)C(=O)O)C(=O)O)C(=O)O)CC[N]2CC(C)(C)[S][Tc]2(=[O])[S]1 (some centres unmarked) [technetium-99m labelled] | FOLH1 (Homo sapiens, UniProt Q04609) | saturation binding | LNCaP |  |  | Bmax | 10 µmol/mg |
| N#Cc1ccc2[nH]cc(CCCCN3CCN(c4ccc5oc(C(N)=O)cc5c4)CC3)c2c1 | SLC6A4 (Homo sapiens, UniProt P31645) | [3H]5-HT uptake, inhibitor | HEK293 |  |  | Hill coefficient | 1.39 ± 0.1 |
| CCCCC[C@H](O)/C=C/[C@H]1[C@H](O)CC(=O)[C@@H]1C/C=C\CCCC(=O)O | PTGER1 (Homo sapiens, UniProt P34995, F334L/G92T) | IP1 accumulation, agonist | AD293 | 1 h | relative to: wild type receptor | Emax | 104 ± 4.43% |
| O=C1NC(=O)/C(=C/c2ccc(-c3ccc(F)cc3O)o2)S1 | STK11 (Homo sapiens, UniProt Q15831) | enzyme activity |  | 10 µM |  | remaining activity | 52% |
| CCCCC[C@@H]1OC(=O)[C@@H](C)N(C)C(=O)[C@H](CCCCC)OC(=O)[C@@H](C)N(C)C(=O)[C@H](CC(=O)O)OC(=O)[C@@H](C)N(C)C(=O)[C@H](CCCCC)OC(=O)[C@@H](C)N(C)C1=O | Ryr2 (Mus musculus, UniProt E9Q401) |  | permeabilized ventricular cardiomyocytes, C57BL/6J mice | 25 µM, 15 min | relative to: vehicle | Ca2+ spark frequency | increased |
| [Cl-].[Na+] | GUK1 | enzyme activity, NADH-coupled |  | 120 mM |  | reaction velocity | 0.00333 µM/s and 0.023 µM/s and -0.00917 µM/s |
| CCN1CCC[C@H]1CNC(=O)c1c(O)c(Cl)cc(Cl)c1OC | Adhesion G protein-coupled receptor F5 (ADGRF5, Homo sapiens, UniProt Q8IZF2) | β-arrestin recruitment, TANGO luminescence, measured: GPR116 |  | concentration not given | relative to: basal luminescence | log2 fold change | 0.084 |
| CC(=O)N[C@H](C(=O)N1C[C@H](O)C[C@H]1C(=O)NCc1ccc(-c2scnc2C)cc1)C(C)(C)SCCCCCCNC(=O)C[C@@H]1N=C(c2ccc(Cl)cc2)c2c(sc(C)c2C)-n2c(C)nnc21 | BRD4/VHL, BD2; with elongins B/C (Homo sapiens, UniProt O60885+P40337, A384K/E383V/K378Q) | ITC |  | 25 °C, BRD4 BD2 mutant, ternary |  | −TΔS | -3 ± 1 kcal/mol |
| O=C1CCC(N2C(=O)c3cccc(NCCCCNC(=O)c4cccc(C#Cc5cc(NC(=O)Nc6ccnc(Cl)c6)ccn5)c4)c3C2=O)C(=O)N1 (centres unmarked) | SWI/SNF-related matrix-associated actin-dependent regulator of chromatin subfamily A member 4, residues 537-1393 (SMARCA4, Homo sapiens, UniProt P51532) | ITC |  |  |  | ΔH | -18.3 kcal/mol |
| CCCCCCCCCCCCCCCCCCc1ccc(O)cc1 | Albumin (ALB, Bos taurus, UniProt P02769) | fluorescence quenching |  | concentration not given, 37 °C |  | number of binding sites | ~0.92 |
| CC[C@H](C)[C@H](NC(=O)[C@H](Cc1ccccc1)NC(=O)[C@H](CCC(=O)O)NC(=O)[C@H](CCCNC(=N)N)NC(=O)[C@H](C)NC(=O)[C@H](C)NC(=O)[C@H](CCC(N)=O)NC(=O)[C@H](CCCCNc1c(NCCCCCN(O)C(=O)CCC(=O)NCCCCCN(O)C(=O)CCC(=O)NCCCCCN(O)C(C)=O)c(=O)c1=O)NC(=O)[C@H](CCC(=O)O)NC(=O)[C@H](CC(C)C)NC(=O)[C@H](Cc1ccc(O)cc1)NC(=O)[C@H](CO)NC(=O)[C@H](CO)NC(=O)[C@@H](NC(=O)[C@H](CC(=O)O)NC(=O)[C@H](CO)NC(=O)[C@@H](NC(=O)[C@H](Cc1ccccc1)NC(=O)[C@@H](NC(=O)CNC(=O)[C@H](CCC(=O)O)NC(=O)[C@H](C)NC(=O)CCc1cnc[nH]1)[C@@H](C)O)[C@@H](C)O)C(C)C)C(=O)N[C@@H](C)C(=O)N[C@@H](Cc1c[nH]c2ccccc12)C(=O)N[C@@H](CC(C)C)C(=O)N[C@H](C(=O)N[C@@H](CCCCNc1c(NCCCCCN(O)C(=O)CCC(=O)NCCCCCN(O)C(=O)CCC(=O)NCCCCCN(O)C(C)=O)c(=O)c1=O)C(=O)NCC(=O)N[C@@H](CCCNC(=N)N)C(=O)N[C@@H](CCCCNC(=O)COCCOCCNC(=O)COCCOCCNC(=O)CC[C@H](NC(=O)CCCCCCCCCCCCCCCCC(=O)O)C(=O)O)C(=O)O)C(C)C | GLP1R | agonist, CRE luciferase reporter | BHK cells | metal-free DFO conjugate, added: 0% HSA | relative to: parent peptide | fold potency loss | 44.7 |
| NCCCCC(=O)O | SLC6A6 (Homo sapiens, UniProt P31641, G62A) | binding, microscale thermophoresis |  | 977 nM, room temperature, added: 50 nM labelled protein | higher = more binding | normalised MST signal | -0.0216 |
| Nc1ccc(C(=O)O)cc1 | BEST1, with wild-type BEST1 (Homo sapiens, UniProt O76090, D302A) | ion current, whole-cell patch clamp | HEK293 co-expressing mutant and wild-type | concentration not given, voltage -20 mV |  | current density | -4.47 pA/pF and -3.27 pA/pF and -3.66 pA/pF and -3.3 pA/pF and -1.46 pA/pF and -1.61 pA/pF |
| C=CCn1c(=O)c2cnc(Nc3ccc(N4CCN(CCCNc5cccc6c5C(=O)N(C5CCC(=O)NC5=O)C6=O)CC4)cc3)nc2n1-c1cccc(C(C)(C)O)n1 (centres unmarked) | WEE1/CRBN (Homo sapiens, UniProt P30291+Q96SW2) | formation, ternary complex, WEE1-CRBN, degrader, TR-FRET |  |  |  | concentration at peak FRET signal | ~300 nM |
| CC[C@H](C)[C@H](NC(=O)[C@H](Cc1ccccc1)NC(=O)[C@H](CCC(=O)O)NC(=O)[C@H](CCCNC(=N)N)NC(=O)[C@H](C)NC(=O)[C@H](C)NC(=O)[C@H](CCC(N)=O)NC(=O)[C@H](CCC(=O)O)NC(=O)[C@H](CCC(=O)O)NC(=O)[C@H](CC(C)C)NC(=O)[C@H](Cc1ccc(O)cc1)NC(=O)[C@H](CO)NC(=O)[C@H](CO)NC(=O)[C@H](CCCCNc1c(NCCCCCN(O)C(=O)CCC(=O)NCCCCCN(O)C(=O)CCC(=O)NCCCCCN(O)C(C)=O)c(=O)c1=O)NC(=O)[C@H](CC(=O)O)NC(=O)[C@H](CO)NC(=O)[C@@H](NC(=O)[C@H](Cc1ccccc1)NC(=O)[C@@H](NC(=O)CNC(=O)[C@H](CCC(=O)O)NC(=O)[C@H](C)NC(=O)CCc1cnc[nH]1)[C@@H](C)O)[C@@H](C)O)C(=O)N[C@@H](C)C(=O)N[C@@H](Cc1c[nH]c2ccccc12)C(=O)N[C@@H](CC(C)C)C(=O)N[C@H](C(=O)N[C@@H](CCCCNc1c(NCCCCCN(O)C(=O)CCC(=O)NCCCCCN(O)C(=O)CCC(=O)NCCCCCN(O)C(C)=O)c(=O)c1=O)C(=O)NCC(=O)N[C@@H](CCCNC(=N)N)C(=O)N[C@@H](CCCCNC(=O)COCCOCCNC(=O)COCCOCCNC(=O)CC[C@H](NC(=O)CCCCCCCCCCCCCCCCC(=O)O)C(=O)O)C(=O)O)C(C)C | GLP1R | agonist, CRE luciferase reporter | BHK cells | metal-free DFO conjugate, added: 1% HSA | relative to: parent peptide | fold potency loss | 35.7 |
| COc1cc(Nc2ncc3c(n2)-c2ccc(Cl)cc2C(c2c(F)cccc2OC)=NC3)ccc1C(=O)O | ALK | kinase activity |  | 1 µM |  | remaining activity | 83% |
| Cc1ccc(N2CC(C(N)=O)CC2=O)cc1 (centres unmarked) | Transcription intermediary factor 1-beta, PHD-bromodomain (TRIM28, Homo sapiens, UniProt Q13263) | binding, affinity selection mass spectrometry |  |  | relative to: other proteins in batch | fold enrichment | 0.915 |
| Nc1ncnc2c1ncn2[C@@H]1O[C@H](COP(=O)(O)CP(=O)(O)OP(=O)(O)O)[C@@H](O)[C@H]1O | P2X purinoceptor 1 (P2RX1, Homo sapiens, UniProt P51575, S286A) | calcium influx |  | 3.16 µM | relative to: ionomycin response | calcium influx | 95.9% and 88.1% and 93% and 94.5% |
| CCOc1ccc(C(=O)CC(SCc2ccc(Cl)cc2)C(=O)OC)cc1 (centres unmarked) | PLEKHA3, PH domain (Homo sapiens, UniProt Q9HB20) | fluorescence polarization |  |  | relative to: other family proteins over target | selectivity ratio | ~30 fold |
| Nc1ncnc2c1ncn2[C@@H]1O[C@H](COP(=O)(O)OP(=O)(O)O)[C@@H](O)[C@H]1O | GUK1 | ITC |  | concentration not given, added: ATPγS |  | ΔH of binding | -4.53 kcal/mol and -4.65 kcal/mol and -3.23 kcal/mol |
| CC[C@H](C)[C@@H]1NC(=O)[C@H]([C@@H](C)O)NC(=O)[C@@H]2CCCN2C(=O)[C@H](CC(C)C)NC(=O)[C@H](Cc2ccc(O)cc2)NC(=O)CSC[C@@H](C(N)=O)NC(=O)[C@H](CC(C)C)NC(=O)[C@@H]2CCCN2C(=O)[C@H](Cc2c[nH]cn2)NC(=O)[C@H](Cc2c[nH]c3ccccc23)NC(=O)[C@H](CC(C)C)NC(=O)[C@H](Cc2c[nH]cn2)NC(=O)CNC(=O)[C@H](C(C)C)NC(=O)CNC(=O)[C@H]([C@@H](C)O)NC1=O | Vacuolar protein sorting-associated protein 29 (VPS29, Homo sapiens, UniProt Q9UBQ0) | binding, ITC |  | 25 °C, protein alone |  | -TΔS | 1.6 ± 0.9 kcal/mol |
| CC[C@H](C)[C@H](NC(=O)[C@H](Cc1ccccc1)NC(=O)[C@H](CCC(=O)O)NC(=O)[C@H](CCCNC(=N)N)NC(=O)[C@H](C)NC(=O)[C@H](C)NC(=O)[C@H](CCC(N)=O)NC(=O)[C@H](CCC(=O)O)NC(=O)[C@H](CCC(=O)O)NC(=O)[C@H](CC(C)C)NC(=O)[C@H](Cc1ccc(O)cc1)NC(=O)[C@H](CO)NC(=O)[C@H](CO)NC(=O)[C@@H](NC(=O)[C@H](CC(=O)O)NC(=O)[C@H](CO)NC(=O)[C@@H](NC(=O)[C@H](Cc1ccccc1)NC(=O)[C@@H](NC(=O)CNC(=O)[C@H](CCC(=O)O)NC(=O)[C@H](C)NC(=O)CCc1cnc[nH]1)[C@@H](C)O)[C@@H](C)O)C(C)C)C(=O)N[C@@H](C)C(=O)N[C@@H](Cc1c[nH]c2ccccc12)C(=O)N[C@@H](CC(C)C)C(=O)N[C@H](C(=O)N[C@@H](CCCNC(=N)N)C(=O)NCC(=O)N[C@@H](CCCNC(=N)N)C(=O)N[C@@H](CCCCNC(=O)COCCOCCNC(=O)COCCOCCNC(=O)CC[C@H](NC(=O)CCCCCCCCCCCCCCCCC(=O)O)C(=O)O)C(=O)NCC(=O)NCC(=O)N[C@@H](CO)C(=O)N[C@@H](CCSC)C(=O)N[C@H](C(=O)N[C@@H](CCCCNc1c(NCCCCCN(O)C(=O)CCC(=O)NCCCCCN(O)C(=O)CCC(=O)NCCCCCN(O)C(C)=O)c(=O)c1=O)C(=O)O)C(C)C)C(C)C | GLP1R | agonist, CRE luciferase reporter | BHK cells | metal-free DFO conjugate, added: 0% HSA | relative to: parent peptide | fold potency loss | 1.5 |
| C=CC(=O)N1CCC(COCC(=O)N2CCN(c3nc(-c4cnc(N)nc4C(F)F)nc(N4CCOC[C@@H]4C)n3)CC2)CC1 | MAP3K19 (Homo sapiens, UniProt Q56UN5) | KINOMEscan |  | 1 µM |  | remaining binding | 63% |
| Nc1nc2c(ncn2[C@@H]2O[C@H](COP(=O)(O)OP(=O)(O)O)[C@@H](OP(=O)(O)OP(=O)(O)O)[C@H]2O)c(=O)[nH]1 | Hypoxanthine phosphoribosyltransferase (hpt, Escherichia coli, UniProt P0A9M2) | ITC |  | concentration not given |  | binding stoichiometry | 0.97 ± 0.03 |
| O=c1cc(-c2ccc([N+](=O)[O-])cc2)[nH]c2c(-c3ccc(Cl)cc3)c(Cc3ccccc3)nn12 | Glucocorticoid modulatory element-binding protein 2 (GMEB2, Homo sapiens, UniProt Q9UKD1) | thermal stability, binder, thermal proteome profiling | RD, cell lysate | 50 µM, 0.5% DMSO | relative to: DMSO vehicle | melting temperature shift | 7.4 °C |
| O=c1nc(SCc2cc(F)cc(C(F)(F)F)c2)nc(SCc2ccc3sccc3c2)[nH]1 | TOP2A (Homo sapiens, UniProt P11388) | DNA cleavage |  | 31.25 µM |  | mean linear DNA | 3.89% |

Some of these lines once more:
| SMILES | target | assay | test system | conditions | how to read | measurement | value |
| --- | --- | --- | --- | --- | --- | --- | --- |
| CCCCC[C@H](O)/C=C/[C@H]1[C@H](O)CC(=O)[C@@H]1C/C=C\CCCC(=O)O | PTGER1 (Homo sapiens, UniProt P34995, F334L/G92T) | IP1 accumulation, agonist | AD293 | 1 h | relative to: wild type receptor | Emax | 104 ± 4.43% |
| O=C1NC(=O)/C(=C/c2ccc(-c3ccc(F)cc3O)o2)S1 | STK11 (Homo sapiens, UniProt Q15831) | enzyme activity |  | 10 µM |  | remaining activity | 52% |
